Experimental data of several laboratories.
Every numbered part comes from another study and shows a few of its results, in no order.

Block 1
Target: Histone acetyltransferase KAT6A, both winged helices, GST fusion (KAT6A, Homo sapiens, UniProt Q92794, residues 1-181)
Technique: protein binding microarray
Molecule type: double-stranded DNA, one strand shown
Sample: in vitro
Concentration: not given
Setting: 8-mer, flanks averaged, mean of 2 arrays, mostly near background
Relative to: not given
Reading: higher = stronger binding
Target sequence (chain): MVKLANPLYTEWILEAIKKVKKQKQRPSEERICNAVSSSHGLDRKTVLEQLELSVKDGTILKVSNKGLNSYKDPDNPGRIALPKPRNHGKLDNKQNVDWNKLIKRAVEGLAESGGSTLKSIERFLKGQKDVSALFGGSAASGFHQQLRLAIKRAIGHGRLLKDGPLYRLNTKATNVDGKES
Strand	E-score
TGCATGCA	0.0801
CAAACATG	-0.0476
CCCACGAG	-0.232
CAAACCTC	-0.255

Block 2
Target: Sal-like protein 4, full length isoform A (SALL4, Homo sapiens, UniProt Q9UJQ4, residues 1-1053)
Sequence of UniProt Q9UJQ4 (whole entry, looked up): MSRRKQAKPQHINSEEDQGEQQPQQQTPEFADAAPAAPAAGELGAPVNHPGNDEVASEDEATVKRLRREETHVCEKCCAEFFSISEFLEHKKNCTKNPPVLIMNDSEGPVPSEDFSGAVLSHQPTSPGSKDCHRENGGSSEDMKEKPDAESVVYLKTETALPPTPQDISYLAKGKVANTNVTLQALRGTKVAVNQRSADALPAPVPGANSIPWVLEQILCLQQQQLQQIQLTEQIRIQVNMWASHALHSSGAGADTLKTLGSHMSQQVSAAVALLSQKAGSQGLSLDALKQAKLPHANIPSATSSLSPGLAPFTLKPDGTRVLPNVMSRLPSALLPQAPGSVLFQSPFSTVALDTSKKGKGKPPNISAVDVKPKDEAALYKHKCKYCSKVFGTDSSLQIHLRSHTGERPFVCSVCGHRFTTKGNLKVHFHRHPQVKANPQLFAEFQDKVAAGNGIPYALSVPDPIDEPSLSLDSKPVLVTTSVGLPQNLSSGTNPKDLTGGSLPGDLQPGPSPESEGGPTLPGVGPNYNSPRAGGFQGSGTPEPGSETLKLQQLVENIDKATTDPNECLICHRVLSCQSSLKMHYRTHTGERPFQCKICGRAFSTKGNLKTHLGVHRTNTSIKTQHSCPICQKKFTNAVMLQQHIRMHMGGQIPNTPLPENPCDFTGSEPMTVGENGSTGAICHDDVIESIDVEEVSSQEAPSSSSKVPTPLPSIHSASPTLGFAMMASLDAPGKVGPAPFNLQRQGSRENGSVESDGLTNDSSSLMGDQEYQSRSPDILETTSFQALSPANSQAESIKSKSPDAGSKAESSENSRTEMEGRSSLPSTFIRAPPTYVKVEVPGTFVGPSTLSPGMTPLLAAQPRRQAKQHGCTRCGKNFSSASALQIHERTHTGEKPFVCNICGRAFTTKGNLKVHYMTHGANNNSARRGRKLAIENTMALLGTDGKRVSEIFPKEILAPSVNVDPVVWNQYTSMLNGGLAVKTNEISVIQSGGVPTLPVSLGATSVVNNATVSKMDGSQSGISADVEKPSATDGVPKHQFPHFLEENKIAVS
Technique: universal PBM
Molecule type: double-stranded DNA, one strand shown
Sample: in vitro
Concentration: 600 nM
Setting: 8-mer, flanks averaged, mean of replicates
Reading: higher = stronger binding
Strand	E-score
CCATACAC	-0.0351
AGCTTGAG	-0.14
CACATCAG	-0.0267

Block 3
Target: Interferon regulatory factor 5, full length, phosphomimetic (IRF5, Homo sapiens, UniProt Q13568-2, residues 1-514, K96S/S451D/S453D/S456D/S462D)
Technique: protein-binding microarray
Molecule type: double-stranded DNA, one strand shown
Sample: in vitro
Concentration: 250 nM
Setting: 60-bp whole probe
With: salmon DNA 0.4 mg/ml
Relative to: random background probes
Reading: higher = stronger binding
Strand	log fluorescence
GCCTAGCACTATCAGTTTAATATCTAAGAGTGCTAGGTCTTGATTCGCTTGACGCTGCTG	6.86 z-score
GCCTAGCACTTAGGTATCGGTATCGCTTAGTGCTAGGTCTTGATTCGCTTGACGCTGCTG	8.24 z-score
GCCTAGCACTTAGATATCAGACTTGATTAGTGCTAGGTCTTGATTCGCTTGACGCTGCTG	0.0995 z-score

Single results of other studies
Substance	target	test	test system	setting	how to read	quantity	result
PhoQ, residues 284 288 289 292 302 303 SSYNSA	PhoP, residues 12 14 15 18 19 DLLYY (Escherichia coli, UniProt P23836)	Sort-seq, measured: YFP reporter	E. coli	PhoQ-PhoP variant library, with: 10 µM Mg2+	relative to: high Mg2+ state, higher = stronger signaling	fold induction	2.58
